# Results gathered from unrelated publications.
# Each numbered part is a random draw from the data of one study; scales do not carry over between parts.
# Chain of UniProt Q12866 (whole entry, looked up): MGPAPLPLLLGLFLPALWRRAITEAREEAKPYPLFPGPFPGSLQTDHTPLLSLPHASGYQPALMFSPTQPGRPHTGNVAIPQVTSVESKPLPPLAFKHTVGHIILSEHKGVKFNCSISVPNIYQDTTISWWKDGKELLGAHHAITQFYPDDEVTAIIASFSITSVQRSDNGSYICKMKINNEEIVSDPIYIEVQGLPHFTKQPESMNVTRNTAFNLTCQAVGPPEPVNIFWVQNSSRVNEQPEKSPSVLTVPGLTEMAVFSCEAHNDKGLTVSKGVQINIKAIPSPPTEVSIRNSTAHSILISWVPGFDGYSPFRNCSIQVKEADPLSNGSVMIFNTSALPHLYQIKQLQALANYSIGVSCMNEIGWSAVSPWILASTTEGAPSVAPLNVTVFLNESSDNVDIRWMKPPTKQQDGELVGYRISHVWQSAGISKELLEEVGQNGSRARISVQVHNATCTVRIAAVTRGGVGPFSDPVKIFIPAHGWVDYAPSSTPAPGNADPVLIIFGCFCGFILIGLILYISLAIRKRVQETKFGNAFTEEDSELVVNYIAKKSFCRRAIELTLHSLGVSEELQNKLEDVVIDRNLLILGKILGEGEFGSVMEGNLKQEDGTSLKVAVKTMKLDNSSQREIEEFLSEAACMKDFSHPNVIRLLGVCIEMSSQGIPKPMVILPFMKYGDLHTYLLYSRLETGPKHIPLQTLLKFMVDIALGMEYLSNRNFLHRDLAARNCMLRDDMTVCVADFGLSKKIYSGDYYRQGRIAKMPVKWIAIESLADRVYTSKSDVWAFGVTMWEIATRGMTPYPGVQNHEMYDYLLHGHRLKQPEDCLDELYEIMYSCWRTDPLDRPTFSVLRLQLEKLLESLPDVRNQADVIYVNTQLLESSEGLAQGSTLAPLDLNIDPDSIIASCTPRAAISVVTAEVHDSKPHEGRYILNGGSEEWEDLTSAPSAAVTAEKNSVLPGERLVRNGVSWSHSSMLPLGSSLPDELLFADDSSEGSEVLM
# Chain of UniProt P29320 (whole entry, looked up): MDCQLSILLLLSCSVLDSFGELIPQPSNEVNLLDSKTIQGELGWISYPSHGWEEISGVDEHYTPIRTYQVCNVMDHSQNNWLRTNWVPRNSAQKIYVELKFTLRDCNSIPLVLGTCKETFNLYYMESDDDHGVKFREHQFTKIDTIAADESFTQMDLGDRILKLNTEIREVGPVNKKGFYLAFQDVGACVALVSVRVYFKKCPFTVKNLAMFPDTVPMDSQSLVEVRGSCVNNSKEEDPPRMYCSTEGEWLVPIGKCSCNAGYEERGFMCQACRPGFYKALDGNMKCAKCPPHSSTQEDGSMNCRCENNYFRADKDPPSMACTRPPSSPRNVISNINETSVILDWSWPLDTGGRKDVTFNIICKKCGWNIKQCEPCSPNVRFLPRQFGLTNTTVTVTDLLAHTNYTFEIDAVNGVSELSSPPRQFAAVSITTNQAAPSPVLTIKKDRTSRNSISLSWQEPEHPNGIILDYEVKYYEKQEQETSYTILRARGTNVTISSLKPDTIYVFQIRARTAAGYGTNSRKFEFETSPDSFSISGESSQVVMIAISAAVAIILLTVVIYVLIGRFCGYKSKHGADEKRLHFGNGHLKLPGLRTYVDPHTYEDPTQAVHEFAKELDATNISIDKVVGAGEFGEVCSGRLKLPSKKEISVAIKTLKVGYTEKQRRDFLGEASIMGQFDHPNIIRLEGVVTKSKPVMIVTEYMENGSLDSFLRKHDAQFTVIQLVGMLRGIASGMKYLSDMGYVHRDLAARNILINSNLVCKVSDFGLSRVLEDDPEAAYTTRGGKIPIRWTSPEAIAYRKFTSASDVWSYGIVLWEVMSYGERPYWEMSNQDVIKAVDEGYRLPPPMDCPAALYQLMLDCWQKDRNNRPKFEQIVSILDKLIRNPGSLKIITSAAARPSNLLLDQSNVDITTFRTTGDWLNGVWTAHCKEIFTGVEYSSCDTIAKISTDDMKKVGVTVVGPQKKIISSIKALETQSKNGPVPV
# Chain of UniProt Q9HC98 (whole entry, looked up): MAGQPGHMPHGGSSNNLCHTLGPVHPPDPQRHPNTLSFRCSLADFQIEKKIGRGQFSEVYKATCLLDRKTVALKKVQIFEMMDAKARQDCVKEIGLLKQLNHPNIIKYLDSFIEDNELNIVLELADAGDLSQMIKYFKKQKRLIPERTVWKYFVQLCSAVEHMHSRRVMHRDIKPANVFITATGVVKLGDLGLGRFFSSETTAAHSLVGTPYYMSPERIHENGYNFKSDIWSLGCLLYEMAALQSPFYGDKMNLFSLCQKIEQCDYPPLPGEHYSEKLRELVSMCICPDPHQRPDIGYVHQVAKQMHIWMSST
# Chain of UniProt Q96L34 (whole entry, looked up): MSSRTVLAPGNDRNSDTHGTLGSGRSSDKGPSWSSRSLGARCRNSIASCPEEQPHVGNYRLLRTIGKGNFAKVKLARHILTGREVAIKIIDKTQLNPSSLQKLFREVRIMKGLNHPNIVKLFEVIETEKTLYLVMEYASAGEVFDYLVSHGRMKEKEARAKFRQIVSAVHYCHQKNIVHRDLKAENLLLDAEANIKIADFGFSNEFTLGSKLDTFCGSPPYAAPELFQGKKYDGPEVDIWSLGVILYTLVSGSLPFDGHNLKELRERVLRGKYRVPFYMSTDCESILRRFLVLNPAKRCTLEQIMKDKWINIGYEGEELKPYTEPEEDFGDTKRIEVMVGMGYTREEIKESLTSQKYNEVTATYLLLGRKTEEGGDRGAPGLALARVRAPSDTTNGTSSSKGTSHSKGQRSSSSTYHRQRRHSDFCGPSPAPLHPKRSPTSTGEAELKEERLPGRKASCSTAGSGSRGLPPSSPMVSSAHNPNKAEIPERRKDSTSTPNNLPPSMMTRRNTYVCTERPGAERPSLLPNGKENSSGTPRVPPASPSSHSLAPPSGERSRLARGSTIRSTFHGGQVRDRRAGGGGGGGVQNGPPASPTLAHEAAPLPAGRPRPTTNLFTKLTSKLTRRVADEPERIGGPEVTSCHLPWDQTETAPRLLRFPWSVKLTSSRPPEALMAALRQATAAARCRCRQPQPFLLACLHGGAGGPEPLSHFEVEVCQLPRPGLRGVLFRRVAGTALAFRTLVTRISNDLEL
# Chain of UniProt P36896 (whole entry, looked up): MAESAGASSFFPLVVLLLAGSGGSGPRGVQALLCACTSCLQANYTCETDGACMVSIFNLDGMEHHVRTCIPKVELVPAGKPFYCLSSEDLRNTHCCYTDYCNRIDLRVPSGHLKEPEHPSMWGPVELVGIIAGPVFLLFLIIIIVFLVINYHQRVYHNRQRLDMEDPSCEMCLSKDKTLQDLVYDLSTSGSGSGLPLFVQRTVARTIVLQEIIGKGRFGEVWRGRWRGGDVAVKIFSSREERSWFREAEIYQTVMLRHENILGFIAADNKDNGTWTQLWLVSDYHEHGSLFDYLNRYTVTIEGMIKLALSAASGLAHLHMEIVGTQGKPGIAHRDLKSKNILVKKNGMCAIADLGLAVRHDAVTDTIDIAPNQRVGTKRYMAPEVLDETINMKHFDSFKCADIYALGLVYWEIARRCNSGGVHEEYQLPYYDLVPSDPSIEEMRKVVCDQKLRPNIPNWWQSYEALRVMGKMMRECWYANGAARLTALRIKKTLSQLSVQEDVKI
# Chain of UniProt Q9BWU1 (whole entry, looked up): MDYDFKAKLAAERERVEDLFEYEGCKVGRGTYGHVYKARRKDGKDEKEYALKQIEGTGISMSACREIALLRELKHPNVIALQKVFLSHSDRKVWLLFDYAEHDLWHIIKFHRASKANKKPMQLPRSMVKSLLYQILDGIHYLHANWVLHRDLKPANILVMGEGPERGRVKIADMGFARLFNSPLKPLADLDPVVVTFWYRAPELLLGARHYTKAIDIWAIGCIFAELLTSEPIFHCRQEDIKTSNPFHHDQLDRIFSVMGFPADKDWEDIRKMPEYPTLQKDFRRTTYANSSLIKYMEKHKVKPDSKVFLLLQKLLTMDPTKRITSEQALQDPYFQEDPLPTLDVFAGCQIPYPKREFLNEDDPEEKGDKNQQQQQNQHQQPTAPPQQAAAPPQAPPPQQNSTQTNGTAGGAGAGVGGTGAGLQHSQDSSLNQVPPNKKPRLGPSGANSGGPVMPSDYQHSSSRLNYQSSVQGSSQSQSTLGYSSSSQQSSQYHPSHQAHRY
# Chain of UniProt Q8WTQ7 (whole entry, looked up): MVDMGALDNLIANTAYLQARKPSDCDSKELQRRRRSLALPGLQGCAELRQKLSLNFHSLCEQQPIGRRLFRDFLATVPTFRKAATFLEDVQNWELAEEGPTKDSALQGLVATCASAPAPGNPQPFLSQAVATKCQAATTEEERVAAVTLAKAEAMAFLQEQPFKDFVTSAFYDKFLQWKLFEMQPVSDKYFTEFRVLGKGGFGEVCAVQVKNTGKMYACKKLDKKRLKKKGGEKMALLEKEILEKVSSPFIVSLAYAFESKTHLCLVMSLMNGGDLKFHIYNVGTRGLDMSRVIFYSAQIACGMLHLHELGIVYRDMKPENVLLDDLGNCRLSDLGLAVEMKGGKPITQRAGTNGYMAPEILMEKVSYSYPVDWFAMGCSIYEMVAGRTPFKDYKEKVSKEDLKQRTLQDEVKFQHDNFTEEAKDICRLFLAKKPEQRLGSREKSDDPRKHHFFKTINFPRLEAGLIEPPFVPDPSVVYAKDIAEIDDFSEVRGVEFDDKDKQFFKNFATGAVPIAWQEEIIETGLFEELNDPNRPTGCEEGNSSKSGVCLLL

# Series 1
# Target: FOXO3, forkhead domain (mouse, UniProt Q9WVH4, residues 31-263)
# Chain of UniProt Q9WVH4 (31-263, looked up): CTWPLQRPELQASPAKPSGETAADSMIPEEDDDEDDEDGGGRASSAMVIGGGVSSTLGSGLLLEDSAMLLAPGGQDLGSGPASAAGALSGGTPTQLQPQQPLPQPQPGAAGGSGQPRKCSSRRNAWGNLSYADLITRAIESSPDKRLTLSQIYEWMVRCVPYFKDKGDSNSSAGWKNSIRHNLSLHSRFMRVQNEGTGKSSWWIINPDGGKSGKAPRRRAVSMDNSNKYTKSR
# Method: protein-binding microarray
# Form: hairpin DNA
# Medium: in vitro
# Tested at: not given
# Setting: whole hairpin DNA, median over replicate spots
# Relative to: not given
# Reading: higher = stronger binding
Sequence,median fluorescence [a.u.]
GAGGCCATGTACCCAACGCCTCCTGGCGTTGGGTACATGGCCTCACACTC (5mC at 12),4090
GAGGCCATGTAACGAACGCCTCCTGGCGTTCGTTACATGGCCTCACACTC (5mC at 13 31),3960
GAGGCCAGGTAAACAACGCCTCCTGGCGTTGTTTACCTGGCCTCACACTC,5660
GAGGCCCGGCAAACAACGCCTCCTGGCGTTGTTTGCCGGGCCTCACACTC (5mC at 37),5530
GAGGCCATGCAAACGACGCCTCCTGGCGTCGTTTGCATGGCCTCACACTC (5mC at 14),4570
GAGGCCATGCAAGCAACGCCTCCTGGCGTTGCTTGCATGGCCTCACACTC (5mC at 32),5660
GAGGCCATGCGACCAACGCCTCCTGGCGTTGGTCGCATGGCCTCACACTC (5mC at 34),4590
GAGGCCATATAACCAACGCCTCCTGGCGTTGGTTATATGGCCTCACACTC,3540

# Series 2
# Target: Myc proto-oncogene protein, bHLH-zipper, MAX partner unstated (MYC, Homo sapiens, UniProt P01106, residues 368-449)
# Chain of UniProt P01106 (368-449, looked up): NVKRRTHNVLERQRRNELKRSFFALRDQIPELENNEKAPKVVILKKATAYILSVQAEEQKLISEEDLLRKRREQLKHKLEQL
# Method: protein-binding microarray
# Form: double-stranded DNA, one strand shown
# Medium: in vitro
# Tested at: not given
# Setting: k-mer, scored over probes, only values ≥0.25
# Reading: higher = stronger binding
Sequence,E-score
CACGTTAC,0.379
ACGCACCC,0.274
GGTGGCGA,0.332
CCACGAGA,0.406
GCATGCGC,0.42
CATGGTGC,0.399
CATGTGTA,0.464
GTGTTGCA,0.3

# Series 3
# SMILES: CO[C@H]1CC[C@H](CNc2ccc(S(=O)(=O)NC(=O)c3ccc(N4CCN(CC5=C(c6ccc(Cl)cc6)CC(C)(C)CC5)CC4)cc3Oc3cnc4[nH]ccc4c3)cc2[N+](=O)[O-])CC1
# Tested at: 1 µM
target,test,remaining binding [%]
"EPHA7 (Homo sapiens, UniProt Q15375)","cell-free assay, competition with immobilised ligand",87
"MARK4 (Homo sapiens, UniProt Q96L34)","cell-free assay, competition with immobilised ligand",83
"MAP3K4 (Homo sapiens, UniProt Q9Y6R4)","cell-free assay, competition with immobilised ligand",90
"CDK19 (Homo sapiens, UniProt Q9BWU1)",competition binding,73

# Series 4
# Structure (SMILES): Cc1ccc(NC(=O)c2ccc(CN3CCN(C)CC3)cc2)cc1Nc1nc(-c2cccnc2)cs1
# Read-out: enzyme activity
# Mode: inhibitor
# Tested at: 0.5 µM
# Relative to: control
target,remaining activity [%]
"ACVR1B (Homo sapiens, UniProt P36896)",99.8
"MERTK (Homo sapiens, UniProt Q12866)",109
"EPHA3 (Homo sapiens, UniProt P29320)",90.3
"TAOK2 (Homo sapiens, UniProt Q9UL54)",91.6
"GRK7 (Homo sapiens, UniProt Q8WTQ7)",104
"NEK1 (Homo sapiens, UniProt Q96PY6)",116
"MST1R (Homo sapiens, UniProt Q04912)",104
"NEK6 (Homo sapiens, UniProt Q9HC98)",91.3
"FGFR1 (Homo sapiens, UniProt P11362)",103

# Repeated from above (series 1):
Sequence,median fluorescence [a.u.]
GAGGCCATATAACCAACGCCTCCTGGCGTTGGTTATATGGCCTCACACTC,3540
GAGGCCAGGTAAACAACGCCTCCTGGCGTTGTTTACCTGGCCTCACACTC,5660
GAGGCCATGCAAACGACGCCTCCTGGCGTCGTTTGCATGGCCTCACACTC (5mC at 14),4570
GAGGCCATGTAACGAACGCCTCCTGGCGTTCGTTACATGGCCTCACACTC (5mC at 13 31),3960
